Measurements gathered from unrelated publications.
Protocols differ between the studies behind these lines. ± marks the error that the study gave.

With `[Cl][Ag].[Se]=c1n(C2CCCCC2)ccn1C1CCCCC1` the IC50 was 1.4 µM (PSN1; cell growth or viability, MTT; 72 h).
`CC(C)C[C@H](NC(=O)CCNc1ccc([N+](=O)[O-])c2nonc12)C(=O)N[C@@H](CC(C)C)C(=O)N[C@@H](CC(C)C)C(=O)N[C@@H](CC(C)C)C(=O)N[C@@H](Cc1ccc(OP(=O)(O)O)cc1)C(=O)O` has an IC50 of 122 µM (SAOS-2; cell growth or viability, MTT; 24 h).
`Cc1cc(C)n(C(C(=O)OC(C)C)n2nc(C)cc2C)n1.F[P-](F)(F)(F)(F)F.[Cu+].c1ccc(P(c2ccccc2)c2ccccc2)cc1` gave an IC50 of 21.9 µM (PSN1; cell growth or viability, MTT; 72 h).
With `CC[C@H](C)[C@H](NC(=O)[C@H](CCCCN)NC(=O)[C@@H](NC(=O)[C@H](CCC(N)=O)NC(=O)[C@H](CCCNC(=N)N)NC(=O)[C@H](CC(C)C)NC(=O)CNC(=O)[C@H](Cc1ccccc1)NC(=O)CNC(=O)[C@H](Cc1ccc(O)cc1)NC(=O)CNC(=O)[C@H](CCCCN)NC(=O)[C@@H](NC(=O)[C@H](Cc1ccccc1)NC(=O)[C@@H](NC(=O)[C@H](CC(=O)O)NC(=O)[C@H](CCCNC(=N)N)NC(=O)[C@H](C)NC(=O)[C@H](CO)NC(=O)[C@H](CCCCN)NC(=O)CNC(=O)[C@H](CC(C)C)NC(=O)[C@H](CC(=O)O)NC(=O)[C@H](C)NC(=O)[C@H](Cc1ccc(O)cc1)NC(=O)[C@@H](NC(=O)[C@@H]1CCCN1C(=O)[C@@H]1CCCN1C(=O)[C@@H](NC(=O)[C@H](C)NC(=O)[C@@H](N)CCSC)C(C)C)[C@@H](C)O)C(C)C)[C@@H](C)O)[C@@H](C)CC)C(=O)N[C@@H](Cc1c[nH]c2ccccc12)C(=O)N[C@@H](Cc1ccccc1)C(=O)N[C@@H](CCC(N)=O)C(=O)N[C@@H](CC(N)=O)C(=O)N[C@@H](CCCNC(=N)N)C(=O)N[C@@H](CCCNC(=N)N)C(=O)N[C@@H](CCSC)C(=O)N[C@@H](CCCCN)C(=O)N[C@@H](Cc1c[nH]c2ccccc12)C(=O)N[C@@H](CCCCN)C(=O)N[C@@H](CCCCN)C(=O)O` the IC50 was 3.2 µM (CLL patient PBMCs; cell death, PI staining flow cytometry; 90 min, room temperature, serum-free medium).
`O=C(Cc1ccc2ccccc2c1)N[C@H](Cc1ccccc1)C(=O)N[C@H](Cc1ccc(O)cc1)C(=O)N[C@H](Cc1ccccc1)C(=O)N[C@H](Cc1ccc(O)cc1)C(=O)O` gave an IC50 of over 500 µg/mL (SAOS-2; cell growth or viability, MTT).
For `C[C@H]1C(OCCCCCCCCCCCC[P+](c2ccccc2)(c2ccccc2)c2ccccc2)O[C@@H]2O[C@@]3(C)CCC4[C@H](C)CCC1[C@]42OO3` (some centres unmarked), the IC50 was 0.101 µM (OVCAR-3; cell growth or viability, MTT; 72 h).
With `C=C1C(=O)O[C@H]2C[C@H](C)C(/C=C/C(C)=O)=CC[C@H]12` the IC50 was 12.3 µM (L1210; cell growth or viability, MTT; 24 h).
`COc1ccc(C(c2c(C)nn(-c3ccccc3)c2O)c2c(C)nn(-c3ccccc3)c2O)cc1` has an IC50 of over 40 µM (Ishikawa; cell growth or viability, MTT; 48 h).
`Cc1cc(C)c(-n2ccn(-c3c(C)cc(C)cc3C)c2=[Se])c(C)c1.[Cl][Ag]` gave an IC50 of 0.3 ± 0.03 µM (A2780 ADR; MTT; 72 h).
With `CCC(C)C1OC(=O)C(NC(=O)c2cccc(NC=O)c2O)C(C)OC(=O)C(C(C)CC)OC(=O)C(C)(C)C(O)C(Cc2ccccc2)OC1=O` (centres unmarked) the IC50 was 0.779 ± 0.13 µM (PC-9/GR gefitinib-resistant; cell viability, CCK-8; 72 h).
The IC50 of `CC1(CCCOC2C(O)OC(CO)C(O)C2O)C(=O)[O][Pt][O]C1=O.NC1CCCCC1N` (mixture of isomers) is reported as 26 µM (DU145 GLUT1 shRNA knockdown; cytotoxicity, MTT; 7.5 h then 64 h recovery).
The IC50 of `CNC(=O)c1cc(Oc2ccc(NC(=O)c3ccc(-c4ccccc4OC(=O)CCC(=O)OC4OC5OC6(C)CCC7C(C)CCC(C4C)C57OO6)cn3)cc2)ccn1` (centres unmarked) is reported as 8.67 µM (Hep3B; cell growth or viability, MTT; 72 h).
For `C#CCN[C@@H]1C=C[C@]2(O[C@H]([C@@H](CC)C(=O)[C@@H](C)[C@@H](O)[C@H](C)[C@@H]3O[C@@H]([C@@H](CC)C(=O)O)CC[C@@H]3C)[C@@H](C)C[C@H]2C)O[C@@]12CC[C@@](C)([C@H]1CC[C@](O)(CC)[C@H](C)O1)O2`, the IC50 was 0.17 ± 0.02 µM (HMLER CD24low/CD44high; CellTiter-Blue; 72 h).
For `CNC(=O)c1cc(Oc2ccc(NC(=O)c3ccc(-c4cccc(OC(=O)CCC(=O)OC5OC6OC7(C)CCC8C(C)CCC(C5C)C68OO7)c4)cn3)cc2)ccn1` (centres unmarked), the IC50 was 1.65 µM (Huh-7; cell growth or viability, MTT; 72 h).
`N=C(N)NCCC[C@@H](N)C(=O)N[C@@H](Cc1c[nH]c2ccccc12)C(=O)N[C@@H](CCC(N)=O)C(=O)N[C@@H](Cc1c[nH]c2ccccc12)C(=O)N[C@@H](CCCN)C(=O)N[C@@H](Cc1c[nH]c2ccccc12)C(=O)N[C@@H](CCC(N)=O)C(=O)N[C@@H](Cc1c[nH]c2ccccc12)C(=O)N[C@@H](CCCNC(=N)N)C(N)=O` gave an IC50 of 109 µM (Caco-2; cell growth or viability, MTT).
With `O=C(O)c1ccc([PH]([Au][Cl])(c2ccccc2)c2ccccc2)cc1` the IC50 was 9.4 µM (MDA-MB-157; cell growth or viability, resazurin; 72 h, 3D culture).
With `C[C@H]1C(OCCCCC[P+](c2ccccc2)(c2ccccc2)c2ccccc2)O[C@@H]2O[C@@]3(C)CCC4[C@H](C)CCC1[C@]42OO3` (some centres unmarked) the IC50 was 0.177 µM (OVCAR-3; cell growth or viability, MTT; 72 h).
`[CH3][Ti+2][O]C(=O)c1ccc([S][Au][PH](c2ccccc2)(c2ccccc2)c2ccccc2)cc1.c1cc[cH-]c1.c1cc[cH-]c1` gave an IC50 of 0.12 µM (CAKI-1; cell growth or viability, XTT; 72 h).
For `Cc1nn(-c2ccccc2)c(O)c1C(c1cccc([N+](=O)[O-])c1)c1c(C)nn(-c2ccccc2)c1O`, the IC50 was 32.8 µM (Ishikawa; cell growth or viability, MTT; 48 h).
`O=C1CC2(C1)C(=O)[O][Pt]1([Cl])([O]C(=O)C(Cl)Cl)([NH][C@@H]3CCCC[C@H]3[NH]1)[O]C2=O` gave an IC50 of 120 ± 6.74 µM (SGC-7901/CDDP cisplatin-resistant; cell viability, MTT; 48 h).
With `CC(C)C[C@@H](NC(=O)[C@@H](CC(C)C)NC(=O)[C@@H](CO)NC(=O)[C@@H](Cc1c[nH]cn1)NC(=O)[C@@H](CC(C)C)NC(=O)[C@@H](CO)NC(=O)[C@@H](CCCNC(=N)N)NC(=O)[C@@H](CO)NC(=O)[C@H](N)Cc1ccccc1)C(=O)NCC(=O)NCCCCCC(=O)N[C@H](CCCNC(=N)N)C(=O)N[C@H](CCCNC(=N)N)C(=O)N[C@H](CCCNC(=N)N)C(=O)N[C@H](CCCNC(=N)N)C(=O)N[C@H](CCCNC(=N)N)C(=O)N[C@H](CCCNC(=N)N)C(=O)N[C@H](CCCNC(=N)N)C(=O)N[C@H](CCCNC(=N)N)C(=O)NCC(=O)N[C@@H](CS)C(=O)O` the IC50 was 12 µM (KG-1a; cell viability, MTT; 1 h exposure then 23 h, 37 °C, complete medium with serum).
`CC[C@H](C)[C@H](NC(=O)CNC(=O)[C@H](C)NC(=O)[C@@H]1CCCN1C(=O)CNC(=O)[C@H](C)NC(=O)[C@H](CCC(=O)O)NC(=O)[C@H](C)NC(=O)[C@H](CC(=O)O)NC(=O)[C@H](C)NC(=O)[C@H](CCC(=O)O)NC(=O)[C@H](C)NC(=O)[C@H](CCC(=O)O)NC(=O)[C@@H]1CCCN1C(=O)[C@@H](N)CCC(=O)O)C(=O)NCC(=O)N[C@@H](C)C(=O)N[C@H](C(=O)N[C@@H](CC(C)C)C(=O)N[C@@H](CCCCN)C(=O)N[C@H](C(=O)N[C@@H](CC(C)C)C(=O)N[C@H](C(=O)N[C@H](C(=O)NCC(=O)N[C@@H](CC(C)C)C(=O)N1CCC[C@H]1C(=O)N[C@@H](C)C(=O)N[C@@H](CC(C)C)C(=O)N[C@H](C(=O)N[C@@H](CO)C(=O)N[C@@H](Cc1c[nH]c2ccccc12)C(=O)N[C@H](C(=O)N[C@@H](CCCCN)C(=O)N[C@@H](CCCNC(=N)N)C(=O)N[C@@H](CCCCN)C(=O)N[C@@H](CCCNC(=N)N)C(=O)N[C@@H](CCC(N)=O)C(=O)N[C@@H](CCC(N)=O)C(N)=O)[C@@H](C)CC)[C@@H](C)CC)[C@@H](C)O)[C@@H](C)O)C(C)C)C(C)C` has an IC50 of 35.1 ± 2 µM (MCF7 vector control (FAP-negative); cell viability, MTT; 72 h).
The IC50 of `COc1cc(-c2oc3cc(OC)c(OC)c(O)c3c(=O)c2OC)ccc1O` is reported as 6.66 µM (human Neutrophil; elastase release, inhibitor).
With `COc1ccc2sc3c(c2c1)SCCNC3=O` the IC50 was 13.4 µM (CFPAC-1; cell growth or viability, MTT).
`CNC(=O)c1cc(Oc2ccc(NC(=O)c3ccc(-c4ccc(COC(=O)CCC(=O)OC5OC6OC7(C)CCC8C(C)CCC(C5C)C68OO7)cc4)cn3)cc2)ccn1` (centres unmarked) gave an IC50 of 7.79 µM (Huh-7; cell growth or viability, MTT; 72 h).
`Cc1cc(Nc2nc(C[C@@]3(C(=O)O)CCN(Cc4cccc(Cl)c4F)[C@H](C)C3)cc(C)c2F)[nH]n1` gave an IC50 of 0.225 µM (SW1271; cell growth or viability, ATP luminescence; 5 days).
For `C[C@H](NC(=O)[C@H](CCCNC(=N)N)NC(=O)[C@H](CCCNC(=N)N)NC(=O)[C@@H]1CCCN1C(=O)CNC(=O)[C@H](CCCNC(=N)N)NC(=O)[C@H](CCCNC(=N)N)NC(=O)CN)C(=O)N[C@@H](CC(N)=O)C(=O)N[C@@H](CCC(N)=O)C(=O)N[C@@H](CC(N)=O)C(=O)NCC(=O)N[C@H](C(=O)N[C@@H](CCCNC(=N)N)C(=O)N[C@@H](CCCNC(=N)N)C(=O)N[C@@H](CCCNC(=N)N)C(=O)N[C@@H](CCCNC(=N)N)C(=O)N[C@@H](CCCNC(=N)N)C(=O)N[C@@H](CCCNC(=N)N)C(=O)N[C@H](C(N)=O)[C@@H](C)O)[C@@H](C)O`, the IC50 was over 100 µM (SK-BR-3; cell viability, CellTiter-Blue; 24 h, serum-free medium).
`C=C(C(=O)O)[C@@H]1CC[C@@]2(C)CCC(=O)C(C)=C2C1` has an IC50 of over 10 µM (human Neutrophil; elastase release, inhibitor).
The IC50 of `Cc1cc(C)c(N2CCN(c3c(C)cc(C)cc3C)C2=[Se])c(C)c1.[Cl][Ag]` is reported as 2.4 ± 0.8 µM (LoVo-OXP (oxaliplatin-resistant); MTT; 72 h).

Excerpt of the above:
`Cc1cc(C)c(-n2ccn(-c3c(C)cc(C)cc3C)c2=[Se])c(C)c1.[Cl][Ag]` gave an IC50 of 0.3 ± 0.03 µM (A2780 ADR; MTT; 72 h).
With `C=C1C(=O)O[C@H]2C[C@H](C)C(/C=C/C(C)=O)=CC[C@H]12` the IC50 was 12.3 µM (L1210; cell growth or viability, MTT; 24 h).
The IC50 of `CNC(=O)c1cc(Oc2ccc(NC(=O)c3ccc(-c4ccccc4OC(=O)CCC(=O)OC4OC5OC6(C)CCC7C(C)CCC(C4C)C57OO6)cn3)cc2)ccn1` (centres unmarked) is reported as 8.67 µM (Hep3B; cell growth or viability, MTT; 72 h).
`CC[C@H](C)[C@H](NC(=O)CNC(=O)[C@H](C)NC(=O)[C@@H]1CCCN1C(=O)CNC(=O)[C@H](C)NC(=O)[C@H](CCC(=O)O)NC(=O)[C@H](C)NC(=O)[C@H](CC(=O)O)NC(=O)[C@H](C)NC(=O)[C@H](CCC(=O)O)NC(=O)[C@H](C)NC(=O)[C@H](CCC(=O)O)NC(=O)[C@@H]1CCCN1C(=O)[C@@H](N)CCC(=O)O)C(=O)NCC(=O)N[C@@H](C)C(=O)N[C@H](C(=O)N[C@@H](CC(C)C)C(=O)N[C@@H](CCCCN)C(=O)N[C@H](C(=O)N[C@@H](CC(C)C)C(=O)N[C@H](C(=O)N[C@H](C(=O)NCC(=O)N[C@@H](CC(C)C)C(=O)N1CCC[C@H]1C(=O)N[C@@H](C)C(=O)N[C@@H](CC(C)C)C(=O)N[C@H](C(=O)N[C@@H](CO)C(=O)N[C@@H](Cc1c[nH]c2ccccc12)C(=O)N[C@H](C(=O)N[C@@H](CCCCN)C(=O)N[C@@H](CCCNC(=N)N)C(=O)N[C@@H](CCCCN)C(=O)N[C@@H](CCCNC(=N)N)C(=O)N[C@@H](CCC(N)=O)C(=O)N[C@@H](CCC(N)=O)C(N)=O)[C@@H](C)CC)[C@@H](C)CC)[C@@H](C)O)[C@@H](C)O)C(C)C)C(C)C` has an IC50 of 35.1 ± 2 µM (MCF7 vector control (FAP-negative); cell viability, MTT; 72 h).
